Measurements from different studies.
Values joined by “and” are separate records of one study, mostly repeats; a detail may differ. ± gives the spread as reported.

Cc1ccc([C@@H]2O[C@H](CO)[C@@H](O)[C@H](O)[C@H]2O)cc1Cc1ccc(-c2ccc(F)cc2)s1  urinary calcium excretion change (Japanese type 2 diabetes patients; 200 mg, day 18, 24 h urine collection; reference: baseline): -28.5 mg
O=C(c1ccc(C2CCCCC2)cc1)N1CC(O)C1  hepatic clearance (liver microsome stability; rat liver microsomes; 1 µM): 50 mL/min/kg
CC(C)C[C@H](NC(=O)[C@@H](N)C(C)C)C(=O)N[C@@H](CCCNC(=N)N)C(=O)N[C@@H](Cc1c[nH]c2ccccc12)C(=O)N[C@@H](CO)C(=O)N[C@@H](CCCNC(=N)N)C(=O)N[C@@H](CCCCN)C(=O)N[C@@H](CC(C)C)C(=O)N1CCC[C@H]1C(=O)N[C@@H](CS)C(=O)N[C@H](C(=O)N[C@@H](CO)C(N)=O)C(C)C  remaining activity (12G5 competition, SUP-T1 cells; human plasma; concentration not given, 2 h): 24 ± 4%
NS(=O)(=O)c1cc(C(=O)O)c(NCc2ccco2)cc1Cl  subjects with adverse event (refers to: nausea; healthy men; oral, 8 days, treatment-emergent, crossover trial): 0%
CC(C(=O)NCC(=O)NCC(CNC(=O)CNC(=O)C(C)N1CCN(CC(=O)[O-])CCN(CC(=O)[O-])CCN(CC(=O)[O-])CC1)(CNC(=O)CNC(=O)C(C)N1CCN(CC(=O)[O-])CCN(CC(=O)[O-])CCN(CC(=O)[O-])CC1)CNC(=O)CNC(=O)C(C)N1CCN(CC(=O)[O-])CCN(CC(=O)[O-])CCN(CC(=O)[O-])CC1)N1CCN(CC(=O)[O-])CCN(CC(=O)[O-])CCN(CC(=O)[O-])CC1.[Gd+3].[Gd+3].[Gd+3].[Gd+3] (stereo not drawn)  Gd concentration (LA-ICP-MS; rat, femur cortical mineralized bone; 0.6 mmol Gd/kg, 1 week): < 1 nmol Gd/g
COc1ccnc(C(=O)NCC(=O)O)c1O  KFoc (soil adsorption; clay soil; pH 7.6, organic carbon 1.7 %): 364 mL/g
Cc1cnc(N2CC3(CCOCC3)C2)c(C(=O)Nc2ccc(C(=O)N3CCc4cc(C(=O)Nc5c(C)cccc5F)sc4-c4ccccc43)cc2)c1  fu (rat plasma): 0.01
CNC(=O)c1ccc(-c2cnc3ncc(Cc4ccc5ncccc5c4)n3n2)cc1F  patients with adverse event (refers to: Nausea, all grades; hepatocellular carcinoma patients; oral, 600 mg twice daily, expansion cohort, any causality): 46%
CN(CCC#N)C(=O)c1ccc([C@H]2[C@@H](F)[C@@H](F)C[C@@H](F)[C@H]2F)cc1  hepatic clearance (liver microsome stability; dog liver microsomes; 1 µM): 7.3 mL/min/kg
Fc1ccc(CCCCN2CCN(c3ccccn3)CC2)cc1  tissue/plasma ratio (rat, brain and plasma; intraperitoneal, 50 mg/kg single, at Cmax; reference: brain over plasma): 1.08
C[Si](C)(C)O[Si](C)(C)O[Si](C)(C)O[Si](C)(C)C  hepatic biotransformation rate constant (IVIVE from S9; rainbow trout (Oncorhynchus mykiss)): 0.046 h⁻¹ and 0.071 h⁻¹ and 0.058 h⁻¹
COc1cc(Nc2ncc3c(n2)-c2ccc(Cl)cc2C(c2c(F)cccc2OC)=NC3)ccc1C(=O)O  patients with adverse event (refers to: Hypoxia, all grades; cancer patients, phase 1/2; oral, dose not given, added: pembrolizumab): 4%
O=C(Cc1cccnc1)Nc1ccc([C@H]2[C@@H](F)[C@@H](F)C[C@@H](F)[C@H]2F)cc1  hepatic clearance (cryopreserved human hepatocytes; 1 µM): 6.2 mL/min/kg
Cc1cc(NC2CCN(C(=O)OC3CCN(C(=O)/C=C/CN(C)C)C3)CC2)n2ncc(C(C)C)c2n1 (stereo not drawn)  patients with adverse event (Phase I dose escalation CTCAE v4.0, refers to: dermatitis acneiform; patients with advanced solid tumours; dose not given, Total dosing any grade): 9%
C=CCN1CC(=O)N2[C@@H](Cc3ccc(O)cc3F)C(=O)N(Cc3cccc(N4CC(N5CCN(CC)CC5)C4)n3)C[C@@H]2N1C(=O)NCc1ccccc1  treatment-related nausea (advanced solid tumour patients; oral, 120 mg twice daily, grade ≥3, dose-escalation): 0%
CCc1cc2ncc(CN3CCN(c4ccc(C(=O)NC)nc4)CC3)cc2[nH]c1=O  Lymphocytes count ratio (female rat, blood; oral, 50 mg/kg/day, 4 weeks; reference: vehicle control): 0.67
CC(=O)N(C)C1CCN(c2cc(F)cc(NC(=O)c3cc4c(F)ccc(C)c4[nH]3)c2)C1 (stereo not drawn)  plasma concentration (CD1 mouse, plasma; intravenous, 1 mg/kg, 0.5 h): 426 ng/mL
CNCCOC12CC3(C)CC(C)(CC(Cn4ncc(-c5ccc(N6CCc7cccc(C(=O)Nc8nc9ccccc9s8)c7C6)nc5C(=O)O)c4C)(C3)C1)C2  dP/dt at 50 change (beagle dog, male, anaesthetised; intravenous bolus, 0.03 mg/kg, 10 min; reference: baseline): 10%
Cc1nc(-c2ccc(OCC(C)C)c(C#N)c2)sc1C(=O)O  body weight (KM mouse, chronic hyperuricaemia model; dose not given, day 16): 36.8 g and 36.4 g and 32.6 g and 31.4 g and 40.4 g and 33.2 g
CCn1c(=O)c(-c2cc(NC(=O)Nc3ccccc3)c(F)cc2Br)cc2cnc(NC)cc21  participants with grade ≥ 3 TEAE (refers to: amylase increased; healthy human, matched to mild hepatic impairment; oral, 50 mg single dose): 0%
CCOc1c([C@H](C)n2nc(C)c3c(N)ncnc32)cc(Cl)c(F)c1[C@@H]1CNC(=O)C1  Cmax geometric mean (patients, monotherapy; oral, 20 mg once daily, cycle 1 day 1): 1140 nM
COCCN(C)C(=O)c1ccc(C2CCCCC2)cc1  hepatic clearance (liver microsome stability; cynomolgus liver microsomes; 1 µM): 40 mL/min/kg
Cc1ccc2cncc(N3CCc4c(cc(Cn5ccnc5)cc4-c4cn(C)nc4C(F)(F)F)C3=O)c2c1  AUC extrapolated (CD-1 mouse, male, plasma; oral, 10 mg/kg): 0.8%
NC(=O)CCNC(=O)c1ccc([C@H]2[C@@H](F)[C@@H](F)C[C@@H](F)[C@H]2F)cc1  hepatic clearance (liver microsome stability; cynomolgus liver microsomes; 1 µM): 4.9 mL/min/kg
Cc1ccc(N(C)C(=O)/C=C/c2ccco2)cc1  licking latency (cold plate test; mice; oral, 30 mg/kg single, 60 min): 18.8 ± 0.8 s
N#CCC(=O)Nc1ccc(C2CCCCC2)cc1  hepatic clearance (liver microsome stability; dog liver microsomes; 1 µM): 29 mL/min/kg
FC(F)=Cc1cc(C(F)(F)F)cc(C(F)(F)F)c1  degradation rate constant (chemical stability, HPLC-MS; borate buffered saline; pH 10.2, no N-acetyl-lysine): 0.2 h⁻¹
CCn1cc(C(=O)N2CCOCC2)c(=O)c2cc(NC3Cc4ccccc4C3)cnc21  Tmax (human, fed; oral tablet, 300 mg single dose, median): 4 h
C[C@H]1C=C(Cc2ccccc2)C(=O)O1  KFoc (soil adsorption; clay loam soil; pH 6.8, organic carbon 0.5 %): 301 mL/g
Cn1cc(Nc2nccc(-c3ccc4c(c3)CN(C3COC3)CC[C@H]4NC(=O)c3cn(C(C)(C)C)nn3)n2)cn1  percent change from baseline (refers to: Lymphocytes count; human, clinical trial, whole blood; 150 mg twice daily, follow-up): 3.21%
N#Cc1ccc2c(c1)[C@H]1CCCN(C(=O)c3ccc4[nH]cnc4c3)[C@H]1C2  androstenedione level (human, female; 10 mg, end of trial): 3.2 nmol/L
C[C@H](NC(=O)/C(C#N)=C/c1cccc(Br)n1)c1ccccc1  half-life (LC-MS/MS; patients, plasma; oral, 1 mg/kg, cycle 1 day 1): 1.3 h
Cn1ncnc1[C@H]1c2n[nH]c(=O)c3cc(F)cc(c23)N[C@@H]1c1ccc(F)cc1  AUC(0-τ) (human patients, plasma; oral, 600 µg/m2, median): 189 ng·h/mL
CN(C)CCC(=O)Nc1ccc(C2CCCCC2)cc1  hepatic clearance (hepatocyte stability; cryopreserved rat hepatocytes; 1 µM): 44 mL/min/kg
CC(C)(C(=O)N1CCOc2c(C#N)cncc2C1)C(F)F  subjects with presyncope TEAE (human, both sexes; oral, 10 mg single dose): 0%
CCCCC1=NC2(CCCC2)C(=O)N1Cc1ccc(-c2ccccc2S(=O)(=O)Nc2noc(C)c2C)c(COCC)c1  Cmax (healthy adult volunteers, plasma; oral, 100 mg, 14 days repeated dosing, fasted, crushed tablet): 3010 ng/mL
C=C1CN2CCC[C@@]2(COc2nc3c4c(c(Cl)c(-c5nc(N)cc(C)c5C(F)(F)F)c(F)c4n2)OC[C@@H]2CN(C(=O)/C=C/c4nccc5c4CNCC5)CCN32)C1  clearance (female CD-1 mouse, whole blood; intravenous, 1 mg/kg, DMSO 10%, PEG400 35%, water 55%): 2.9 mL/min/kg
CCN1/C(=C/C(C)=O)Sc2ccc(F)cc21  QTc interval (Bazett) (cynomolgus monkey; oral, 100 mg/kg, 6 h post-dose): 335 ± 18 ms
CC(=O)O[C@H]1C(=O)[C@@]2(C)[C@H]([C@H](OC(=O)c3ccccc3)[C@]3(O)C[C@H](OC(=O)[C@H](O)[C@@H](NC(=O)c4ccccc4)c4ccccc4)C(C)=C1C3(C)C)[C@]1(OC(C)=O)CO[C@@H]1C[C@@H]2O  adverse event incidence (refers to: peripheral oedema; patients with advanced solid tumours; intravenous, dose not given, grade 1 and 2, possibly related to drug): 11%
CN1C(=O)[C@@H](NC(=O)c2nnc(Cc3ccccc3)[nH]2)COc2cccnc21  TEAE leading to permanent discontinuation (phase I multiple ascending dose; human, male and female; oral, 600 mg, 14 days): 0%
CC(C)(c1ccc(O)cc1)c1ccc(O)cc1  dose fraction in skim milk (whole cow milk; 20 nM nominal): 56.9%
O=C(Nc1nc2cccc(-c3ccc(CN4CCS(=O)(=O)CC4)cc3)n2n1)C1CC1  patients with adverse event (refers to: angina pectoris; rheumatoid arthritis patients; oral, 30 mg once daily, 4 weeks, any relatedness): 5.9%
CN1CCN(C(=O)[C@H](CCCN[C@@H]2C[C@H]2c2ccc(F)cc2)NC(=O)c2ccc(-n3ccnn3)cc2)CC1  monocyte count (Sprague-Dawley rats; 20 mg/kg/day, 7 days, reversibility after two 7-day cycles): increased
CC(=O)N1CC(C(=O)Nc2ccc([C@H]3[C@@H](F)[C@@H](F)C[C@@H](F)[C@H]3F)cc2)C1  hepatic clearance (liver microsome stability; mouse liver microsomes; 1 µM): 14 mL/min/kg
CO[C@H]1C[C@@H]2CC[C@@H](C)[C@@](O)(O2)C(=O)C(=O)N2CCCC[C@H]2C(=O)O[C@H]([C@H](C)C[C@@H]2CC[C@@H](OC(=O)NCCOCCOCCOCCOCCOCCOCCOCCOCCC(=O)N3CCc4cc(Cn5nc(-c6ccc7oc(N)nc7c6)c6c(N)ncnc65)ccc4C3)[C@H](OC)C2)C[C@@H](O)[C@H](C)/C=C(\C)[C@@H](O)[C@@H](OC)C(=O)[C@H](C)C[C@H](C)/C=C/C=C/C=C/1C  Tmax (human patients, plasma; intravenous, 16 mg, cycle 1 day 15, weekly dosing): 0.5 h

Some of these lines once more:
C[C@H]1C=C(Cc2ccccc2)C(=O)O1  KFoc (soil adsorption; clay loam soil; pH 6.8, organic carbon 0.5 %): 301 mL/g
COc1ccnc(C(=O)NCC(=O)O)c1O  KFoc (soil adsorption; clay soil; pH 7.6, organic carbon 1.7 %): 364 mL/g
CN1C(=O)[C@@H](NC(=O)c2nnc(Cc3ccccc3)[nH]2)COc2cccnc21  TEAE leading to permanent discontinuation (phase I multiple ascending dose; human, male and female; oral, 600 mg, 14 days): 0%
Cn1cc(Nc2nccc(-c3ccc4c(c3)CN(C3COC3)CC[C@H]4NC(=O)c3cn(C(C)(C)C)nn3)n2)cn1  percent change from baseline (refers to: Lymphocytes count; human, clinical trial, whole blood; 150 mg twice daily, follow-up): 3.21%
Cn1ncnc1[C@H]1c2n[nH]c(=O)c3cc(F)cc(c23)N[C@@H]1c1ccc(F)cc1  AUC(0-τ) (human patients, plasma; oral, 600 µg/m2, median): 189 ng·h/mL
CC(=O)N1CC(C(=O)Nc2ccc([C@H]3[C@@H](F)[C@@H](F)C[C@@H](F)[C@H]3F)cc2)C1  hepatic clearance (liver microsome stability; mouse liver microsomes; 1 µM): 14 mL/min/kg
CN(CCC#N)C(=O)c1ccc([C@H]2[C@@H](F)[C@@H](F)C[C@@H](F)[C@H]2F)cc1  hepatic clearance (liver microsome stability; dog liver microsomes; 1 µM): 7.3 mL/min/kg
